Measurements collected from several papers.
A part holds a random share of what one study measured.

Set 1
Target: Ras GTPase-activating protein-binding protein 1, full length (G3BP1, Homo sapiens, UniProt Q13283)
UniProt Q13283, sequence (whole entry, looked up): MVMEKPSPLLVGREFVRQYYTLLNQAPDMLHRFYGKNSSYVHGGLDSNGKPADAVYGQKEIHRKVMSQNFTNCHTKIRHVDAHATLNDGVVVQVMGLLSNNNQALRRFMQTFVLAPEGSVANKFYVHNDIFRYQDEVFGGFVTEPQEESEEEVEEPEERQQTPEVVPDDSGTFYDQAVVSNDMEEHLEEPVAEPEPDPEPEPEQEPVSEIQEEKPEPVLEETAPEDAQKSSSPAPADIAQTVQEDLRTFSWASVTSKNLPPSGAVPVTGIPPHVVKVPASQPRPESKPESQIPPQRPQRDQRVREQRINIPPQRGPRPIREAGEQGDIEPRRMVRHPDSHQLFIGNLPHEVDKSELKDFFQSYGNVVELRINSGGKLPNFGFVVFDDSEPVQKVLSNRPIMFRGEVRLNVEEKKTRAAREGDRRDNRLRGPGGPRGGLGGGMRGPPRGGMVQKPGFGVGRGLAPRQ
Method: RNA Bind-n-Seq
Molecule type: RNA
Sample: in vitro
Concentration: 200 nM
Setting: whole 134-nt RNA, ends assumed
With: 150 mM KCl
Baseline: input library
Reading: higher = stronger binding
Quantity: log2 enrichment
Oligonucleotide = GGGAGUUCUACAGUCCGACGAUCCAAGUCCUGUGCUACACAUCGUAUGUACCGAAUCGGAAAAGGAAAAGGAAAAGGGAAAGUAUUAUGUUACGCCGUUCGGAUCUGCACUUCUGGAAUUCUCGGGUGUCAAGG; result = -0.83
Oligonucleotide = GGGAGUUCUACAGUCCGACGAUCAGUCCUGUGCUACACAUCGUAUGUACCGAAUCGGGUUUUUUUGGGUGGGAAAAAGGGAAAGUAUUAUGUUACGCCGUUCGGAUCUGCACUUGGAAUUCUCGGGUGUCAAGG; result = -0.105
Oligonucleotide = GGGAGUUCUACAGUCCGACGAUCGUCCUGUGCUACACAUCGUAUGUACCGAAUCGGGUGGGUUUUUUUGGGAAAAAAAGGGAAAGUAUUAUGUUACGCCGUUCGGAUCUGCACUGGAAUUCUCGGGUGUCAAGG; result = -0.289

Set 2
Target: Sal-like protein 4, full length isoform A (SALL4, Homo sapiens, UniProt Q9UJQ4, residues 1-1053)
UniProt Q9UJQ4, sequence (whole entry, looked up): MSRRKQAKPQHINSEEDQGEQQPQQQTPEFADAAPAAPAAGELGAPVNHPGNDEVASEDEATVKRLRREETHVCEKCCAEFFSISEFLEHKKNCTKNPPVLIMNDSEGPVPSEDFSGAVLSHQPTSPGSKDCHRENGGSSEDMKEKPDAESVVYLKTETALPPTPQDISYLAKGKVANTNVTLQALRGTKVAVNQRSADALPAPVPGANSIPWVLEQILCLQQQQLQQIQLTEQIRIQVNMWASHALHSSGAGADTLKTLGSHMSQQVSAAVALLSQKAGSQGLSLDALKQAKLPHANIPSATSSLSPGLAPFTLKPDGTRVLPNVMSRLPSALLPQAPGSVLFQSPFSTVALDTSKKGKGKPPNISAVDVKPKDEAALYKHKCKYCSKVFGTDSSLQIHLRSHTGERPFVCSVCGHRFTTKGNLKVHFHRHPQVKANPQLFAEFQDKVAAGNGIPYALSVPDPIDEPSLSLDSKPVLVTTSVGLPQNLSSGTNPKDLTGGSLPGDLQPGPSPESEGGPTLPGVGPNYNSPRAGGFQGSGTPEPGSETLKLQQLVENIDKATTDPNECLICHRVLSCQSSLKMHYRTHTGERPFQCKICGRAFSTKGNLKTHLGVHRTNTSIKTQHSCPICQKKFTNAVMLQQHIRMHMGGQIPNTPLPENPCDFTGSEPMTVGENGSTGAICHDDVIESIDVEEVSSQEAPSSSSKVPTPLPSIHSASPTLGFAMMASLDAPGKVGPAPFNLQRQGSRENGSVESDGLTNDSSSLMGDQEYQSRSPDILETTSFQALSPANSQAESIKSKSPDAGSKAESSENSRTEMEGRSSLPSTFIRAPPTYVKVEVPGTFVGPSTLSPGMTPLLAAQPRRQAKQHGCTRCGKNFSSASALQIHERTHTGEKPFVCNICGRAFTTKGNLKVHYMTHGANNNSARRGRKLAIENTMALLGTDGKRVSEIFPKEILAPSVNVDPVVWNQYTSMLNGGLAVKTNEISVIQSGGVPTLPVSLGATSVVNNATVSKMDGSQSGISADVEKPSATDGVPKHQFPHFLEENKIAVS
Method: universal PBM
Molecule type: double-stranded DNA, one strand shown
Sample: in vitro
Concentration: 600 nM
Setting: 8-mer, flanks averaged, mean of replicates
Reading: higher = stronger binding
Quantity: E-score
Oligonucleotide = ACTTTGTA; result = 0.146
Oligonucleotide = CAGGCTGG; result = -0.316
Oligonucleotide = ATATCAAC; result = 0.256
Oligonucleotide = CATAGTGG; result = 0.0162

Set 3
Target: PABPC1L2, full length, GST fusion (mouse, UniProt A0ABA7IW68)
Method: RNAcompete
Molecule type: RNA
Sample: in vitro
Concentration: 20 nM
Setting: 7-mer, probes averaged, single round
Baseline: mean of 7-mers
Reading: higher = stronger binding
Quantity: 7-mer Z-score
Residues (chain): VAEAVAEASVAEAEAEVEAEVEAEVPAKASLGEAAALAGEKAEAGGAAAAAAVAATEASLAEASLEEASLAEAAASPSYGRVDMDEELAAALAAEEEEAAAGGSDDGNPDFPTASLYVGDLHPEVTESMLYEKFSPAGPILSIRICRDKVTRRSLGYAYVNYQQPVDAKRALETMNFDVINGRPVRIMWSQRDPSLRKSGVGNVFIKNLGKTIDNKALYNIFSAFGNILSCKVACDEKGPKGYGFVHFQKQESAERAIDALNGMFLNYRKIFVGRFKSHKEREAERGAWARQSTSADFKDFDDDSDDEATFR
Oligonucleotide = AACGGAG; result = -0.012
Oligonucleotide = ACUGCAU; result = -0.208
Oligonucleotide = UUUACGG; result = 0.173
Oligonucleotide = GGAAUAC; result = -0.0283

Further values, each from its own experiment
Substance = PhoQ, residues 284 288 289 292 302 303 SNGLAW; target = PhoP, residues 12 14 15 18 19 AQALL (Escherichia coli, UniProt P23836); assay = Sort-seq, measured: YFP reporter; test system = E. coli; conditions = PhoQ-PhoP variant library, with: 10 µM Mg2+; scale = baseline: high Mg2+ state, higher = stronger signaling; quantity = fold induction; result = 12.7

A few entries again (set 3):
Oligonucleotide = AACGGAG; result = -0.012
Oligonucleotide = ACUGCAU; result = -0.208
